Results from different studies.
Lines come from different studies, so protocols differ. Numbers after ± are the reported error.

O=C1/C(=C/c2ccc(O)c(O)c2)Oc2cc(O)c3c(oc4cc(O)c(O)cc43)c21 gave an EC50 of 2180 µM (ABTS scavenging, absorbance).
For Cc1cc(O)c(C=O)c2c1C(=O)Oc1c(CO)c(O)c3c(c1O2)C(O)OC3=O (stereo not shown), TNF-alpha level read “decreased” (streptozotocin-diabetic male albino rats, serum; dose not given, 9 weeks; baseline: diabetic control).
CCCC[C@H](NC(=O)[C@@H](NC(=O)[C@H](CC(=O)O)NC(=O)[C@H](CCC(N)=O)NC(=O)[C@H](CC(C)C)NC(=O)[C@H](CC(C)C)NC(=O)[C@H](CCCN)NC(=O)[C@H](CCCNC(=N)N)NC(=O)[C@H](C)NC(=O)[C@H](CO)NC(=O)[C@H](CC(C)C)NC(=O)[C@H](CCC(N)=O)NC(=O)[C@H](CC)NC(=O)[C@H](CC(C)C)NC(=O)[C@@H](NC(=O)[C@H](CCCN)NC(=O)[C@H](CCCNC(=N)N)NC(=O)[C@H](Cc1ccc(O)cc1)NC(=O)[C@H](CO)NC(=O)[C@H](CCC(N)=O)NC(=O)[C@@H](NC(=O)[C@H](Cc1ccccc1)NC(=O)[C@@H](NC(=O)[C@H](C)NC(=O)[C@H](CC(=O)O)NC(=O)[C@@H](C)NC(=O)CCc1ccc(O)cc1)[C@@H](C)CC)[C@@H](C)O)C(C)C)[C@@H](C)CC)C(=O)N[C@@H](CC(=O)O)C(=O)N[C@H](CCCNC(=N)N)C(=O)NC has a relative potency of 2.27 (GH release; rat, male, serum; subcutaneous, 3 µg/kg, 30 min; baseline: reference GHRH agonist JI-38).
For CCOc1c(C(C)(C)O)sc2cnc(Nc3ccc(N4CCC(N5CC6(COC6)C5)CC4)cc3OC)nc12, “left ventricular ejection fraction” read 46.1 ± 3.7% (echocardiography; mouse, TAC heart failure; oral, 30 mg/kg/day, 3 weeks after TAC, 7 days dosing).
Under “microglia around Aβ plaques”, CCCCCCCCCn1cc(C(N)(CO)CO)nn1 is recorded as “increased” (APP/PS1 mouse; dose not given; baseline: PBS).
CC(C)C[C@H](NC(=O)[C@H](CCCNC(=N)N)NC(=O)CNC(=O)[C@@H](N)CC(C)C)C(=O)N[C@@H](CO)C(=O)N[C@@H](CCC(N)=O)C(=O)N[C@@H](CCC(=O)O)C(=O)N[C@@H](CC(C)C)C(=O)N[C@@H](Cc1c[nH]cn1)C(=O)N[C@@H](CCCNC(=N)N)C(=O)N[C@@H](CC(C)C)C(=O)N[C@@H](CCC(N)=O)C(=O)N[C@H](C(=O)N[C@@H](Cc1ccc(O)cc1)C(=O)N1CCC[C@H]1C(=O)N[C@@H](CCCNC(=N)N)C(=O)N[C@H](C(=O)N[C@@H](CC(N)=O)C(=O)N[C@H](C(=O)NCC(=O)N[C@@H](CO)C(=O)N[C@@H](CC(N)=O)C(=O)N[C@H](C(=O)N[C@@H](Cc1ccc(O)cc1)C(N)=O)[C@@H](C)O)[C@@H](C)O)[C@@H](C)O)[C@@H](C)O — result for “APP protein level”: “no effect” (Western blot; TgCRND8 mice, brain; icv, dose not given, 5 months; baseline: vehicle).
CC(=O)c1cnc(N)nc1N1CC[C@H]1c1nn2ccc(Cl)c2c(=O)n1-c1ccccc1 has an IC50 of 0.11 µM (Th17 differentiation, refers to: IL-17A; healthy donor whole blood).
With CCCC[C@H](NC(=O)[C@@H](NC(=O)[C@H](CC(=O)O)NC(=O)[C@H](CCC(N)=O)NC(=O)[C@H](CC(C)C)NC(=O)[C@H](CC(C)C)NC(=O)[C@H](CCCN)NC(=O)[C@H](CCCNC(=N)N)NC(=O)[C@H](C)NC(=O)[C@H](CO)NC(=O)[C@H](CC(C)C)NC(=O)[C@H](CCC(N)=O)NC(=O)[C@H](CC)NC(=O)[C@H](CC(C)C)NC(=O)[C@@H](NC(=O)[C@H](CCCN)NC(=O)[C@H](CCCNC(=N)N)NC(=O)[C@H](Cc1ccc(O)cc1)NC(=O)[C@H](CO)NC(=O)[C@H](CC(N)=O)NC(=O)[C@@H](NC(=O)[C@H](Cc1ccccc1)NC(=O)[C@@H](NC(=O)[C@H](C)NC(=O)[C@H](CC(=O)O)NC(=O)[C@@H](C)NC(=O)[C@H](Cc1ccc(O)cc1)NC)[C@@H](C)CC)[C@@H](C)O)C(C)C)[C@@H](C)CC)C(=O)N[C@@H](CC(=O)O)C(=O)NCCCCNC(=N)N the relative potency was 68.1 (GH release; male rat, serum; subcutaneous, dose not given, 15 min; baseline: GHRH(1-29)NH2).
For N[C@@H](Cc1c[nH]c2ccccc12)C(=O)N1CCC[C@H]1C(=O)NCC(=O)NCC(=O)O, the activation energy was 24.6 ± 1.67 kcal/mol (diketopiperazine formation, Arrhenius plot, ESI-MS; 1-propanol; 70, 80, 90 °C, 0.5% acetic acid).
With Sc1nnc(-c2ccccc2Cl)o1 the IC50 was 79.3 ± 3.1 µM (nitric oxide scavenging).

Repeated from above:
With Sc1nnc(-c2ccccc2Cl)o1 the IC50 was 79.3 ± 3.1 µM (nitric oxide scavenging).
For N[C@@H](Cc1c[nH]c2ccccc12)C(=O)N1CCC[C@H]1C(=O)NCC(=O)NCC(=O)O, the activation energy was 24.6 ± 1.67 kcal/mol (diketopiperazine formation, Arrhenius plot, ESI-MS; 1-propanol; 70, 80, 90 °C, 0.5% acetic acid).
